Assay results collected from several papers.
Protocols differ between the studies behind these lines. “And” joins repeats or separate records; there may be more than shown. Numbers after ± are the reported error.

Structure (SMILES)	target or system	test	test system	conditions	how to read	quantity	result
CCCOC(=O)C1CCN(C(=O)c2ccc(N(C)Cc3cnc4nc(N)nc(N)c4n3)cc2)CC1	THP-1-derived macrophages	MTT				CC50	50 to 100 µM
COc1cc(/C=C/C(=O)/C=C/c2ccc(O)c(OC)c2)ccc1O	WRL68	MTT		0.8 µg/mL, 48 h, 10% FBS		viability	84% and 84.3%
COC(=O)C1CCN(C(=O)c2ccc(N(CCO)Cc3cnc4nc(N)nc(N)c4n3)cc2)CC1	THP-1-derived macrophages	MTT				CC50	> 100 µM
O=C(CS)NCCCCCC(=O)Nc1cccc2cccnc12	Caco-2 monolayer				relative to: Papp B-A over Papp A-B	efflux ratio	1.85
O=C(CNc1nc(NS(=O)(=O)c2ccccc2)ncc1-c1nc2ccccc2s1)c1ccc(Cl)cc1	FRhK-4	cytotoxicity		72 h		maximum non-toxic concentration	110 µg/mL
Cc1cc(C(=O)NC(C)(C)COc2cccc3c2C(N)=NS(=O)(=O)N3)cc(C)n1	human peripheral blood lymphocytes	CBPI, concurrent micronucleus test		2000 µg/mL, 24 h	relative to: vehicle control	cytotoxicity	5%
CSc1c(-c2nc3ccccc3s2)c(N)n(NS(=O)(=O)c2ccc(C)cc2)c(=O)c1C#N	FRhK-4			72 h		maximum non-toxic concentration	110 µg/mL
Nc1nc(NS(=O)(=O)c2ccccc2)nc(-c2ccc(Cl)cc2)c1-c1nc2ccccc2s1	FRhK-4	cytotoxicity		72 h		maximum non-toxic concentration	100 µg/mL
O=C(Nc1ccc(Cl)c(Br)c1)c1ccc2c(c1)C(=O)NC2=O	SH-SY5Y	MTT		1 to 20 µM, 24 h		viability	not toxic
C/C=C/C=C/C(=O)O	PH5CH8 (oleate-loaded)			72 h, together with: sodium oleate 1 mM		CC50	> 10 µM
Cc1ccc(-c2nc(N)nc(N)c2-c2nc3ccccc3s2)cc1	FRhK-4	cytotoxicity		72 h		maximum non-toxic concentration	110 µg/mL
Cc1cc(C)c(CNC(=O)c2cc(Cl)c3c(c2C)O[C@@](C)([C@H]2CC[C@H](N(C)C)CC2)O3)c(=O)[nH]1	Caco-2			1 µM		Papp A to B	0.395 ± 0.015 ×10⁻⁶ cm/s
CN(Cc1cnc2nc(N)nc(N)c2n1)c1ccc(C(=O)N2CCCCC2)cc1	THP-1-derived macrophages	MTT				CC50	> 100 µM
Nc1nc(NS(=O)(=O)c2ccccc2)ncc1-c1nc2ccccc2s1	FRhK-4	cytotoxicity		72 h		maximum non-toxic concentration	100 µg/mL
COc1cc2ncnc(Nc3ccc(Oc4ccccc4)cc3C)c2cc1OC.O=C(O)C(F)(F)F	SW-620 (KRAS G12V)	resazurin		concentration not given, 72 h, together with: trametinib 0 nM		viability fraction	0.996 and 1 and 0.99 and 0.928 and 0.858 and 0.954 and 0.939
COc1cc(/C=C2\CC/C(=C\c3ccc(O)c(OC)c3)C2=O)ccc1O	WRL68	MTT		25.0 µg/mL, 48 h, 10% FBS		viability	14.3% and 13.8%
COc1cc(Oc2ccc(CNCc3cnc4nc(N)nc(N)c4n3)cc2)cc(OC)c1OC	THP-1-derived macrophages	MTT				CC50	50 to 100 µM
CC1(C)CC[C@]2(C(=O)O)CC[C@]3(C)C(=CC[C@@H]4[C@@]5(C)CC[C@H](O)C(C)(C)[C@@H]5CC[C@]43C)[C@@H]2C1	N2a APP695	MTT		5 µM		cytotoxicity	not toxic
CSc1c(-c2nc3ccccc3[nH]2)c(N)n(NS(=O)(=O)c2ccccc2)c(=O)c1C#N	FRhK-4			72 h		maximum non-toxic concentration	100 µg/mL
CSc1nc(NS(=O)(=O)c2ccccc2)nc(N)c1-c1nc2ccccc2s1	FRhK-4	cytotoxicity		72 h		maximum non-toxic concentration	90 µg/mL
COC(=O)C1CCN(C(=O)c2ccc(SCc3cnc4nc(N)nc(N)c4n3)nc2)CC1	THP-1-derived macrophages	MTT				CC50	50 to 100 µM
O=C(NCCN1CCCC1=O)c1ccc([C@H]2[C@@H](F)[C@@H](F)C[C@@H](F)[C@H]2F)cc1		liver microsome stability	rat liver microsomes	1 µM		hepatic clearance	14 mL/min/kg

Structure (SMILES)	target or system	test	test system	conditions	how to read	quantity	result
CCSc1c(-c2nc3ccccc3s2)c(N)n(NS(=O)(=O)c2ccc(C)cc2)c(=O)c1C#N	FRhK-4			72 h		maximum non-toxic concentration	120 µg/mL
Cc1ccc(-c2nc(NS(=O)(=O)c3ccc(C)cc3)nc(N)c2-c2nc3ccccc3s2)cc1	FRhK-4	cytotoxicity		72 h		maximum non-toxic concentration	100 µg/mL
O=c1c(O[C@@H]2O[C@H](CO)[C@H](O)[C@H](O)[C@H]2O)c(-c2ccc(O)c(O)c2)oc2cc(O)cc(O)c12	Caco-2 monolayer	transwell permeability		100 µg/mL, apical to basolateral, HBSS, DMSO 1%, together with: SDS 10 mg/mL	relative to: SDS alone	Papp increase	5.3%
CC(=O)N[C@H]1[C@H]([C@H](O)[C@H](O)CO)OC(C(=O)O)=C[C@@H]1N=C(N)N	Caco-2 monolayer		HBSS without Ca2+	180 min, basolateral to apical		Papp	2.57 ± 0.206 ×10⁻⁶ cm/s
CSc1c(-c2nc3ccccc3s2)c(N)n(NS(=O)(=O)c2ccccc2)c(=O)c1C#N	FRhK-4			72 h		maximum non-toxic concentration	100 µg/mL
Nc1nc(N)c2nc(C(=O)NCc3cccc(C(F)(F)F)c3)cnc2n1	THP-1-derived macrophages	MTT				CC50	12.5 to 25 µM
CN1CCN(c2ccc3[nH]c(-c4ccc5[nH]c(-c6cccc(OCCCC(=O)N(C)CCCCN(CC(N)=O)C(=O)[C@H](Cc7ccc(O)cc7)NC(=O)[C@H](Cc7ccc(O)cc7)NC(=O)[C@H](Cc7ccc(O)cc7)NC(=O)[C@H](Cc7ccc(O)cc7)NC(=O)CCCOc7cccc(-c8nc9ccc(-c%10nc%11ccc(N%12CCN(C)CC%12)cc%11[nH]%10)cc9[nH]8)c7)c6)nc5c4)nc3c2)CC1	human DM1 myotubes			5 µM		toxicity	toxic
COc1cc(/C=C/C(=O)C(=Cc2ccccc2)C(=O)/C=C/c2ccc(O)c(OC)c2)ccc1O	WRL68	MTT		0.8 µg/mL, 48 h, 10% FBS		viability	11.2% and 10.6%
O=C(Nc1cc(F)c(F)c(F)c1)c1ccc(F)c(S(=O)(=O)NCc2cccc(B(O)O)c2)c1	HepAD38 cells	CCK-8		6 days		CC50	8.03 ± 0.5 µM
Cc1ccc(C(=O)CNc2nc(NS(=O)(=O)c3ccccc3)ncc2-c2nc3ccccc3s2)cc1	FRhK-4	cytotoxicity		72 h		maximum non-toxic concentration	100 µg/mL
Nc1nc(N)c2nc(CNc3cccc4ccccc34)cnc2n1	THP-1-derived macrophages	MTT				CC50	12.5 to 25 µM
CCN(CC)C(=S)SSC(=S)N(CC)CC	LUHMES MT1G-HiBiT neurons, differentiated			concentration not given		cytotoxicity	toxic
COc1ccc(-c2nc(N)nc(N)c2-c2nc3ccccc3s2)cc1	FRhK-4	cytotoxicity		72 h		maximum non-toxic concentration	90 µg/mL
CCOC(=O)c1cc(C#N)c(=O)n(NS(=O)(=O)c2ccccc2)c1N	FRhK-4			72 h		maximum non-toxic concentration	100 µg/mL
Cc1cc2ccccc2n1CCNC(=O)c1ccc2c(c1)n(C)c(=O)n2C	C6 glioma	cell viability				cytotoxic concentration	> 100 µM
NS(=O)(=O)c1cccc(-c2ccc(C3CCCCC3)cc2)c1		liver microsome stability	mouse liver microsomes	1 µM		hepatic clearance	31 mL/min/kg
CC(=O)N(O)CCCCCNC(=O)CCC(=O)N(O)CCCCCNC(=O)CCC(=O)N(O)CCCCCN	LUHMES MT1G-HiBiT neurons, differentiated			concentration not given		cytotoxicity	toxic
COc1cc2ncnc(Nc3ccc(Oc4ccccc4)c(C)c3C)c2cc1OC.Cl	LoVo (KRAS G13D)	cell growth, resazurin		1 µM, 72 h, together with: 0 nM trametinib	relative to: DMSO	viability	0.737 fraction of control
COC(=O)C1CCN(C(=O)Cc2ccc(NCc3cnc4nc(N)nc(N)c4n3)cc2)CC1	THP-1-derived macrophages	MTT				CC50	> 100 µM
O=C(Nc1cc(F)c(F)c(F)c1)c1ccc(F)c(S(=O)(=O)NCc2ccc(B(O)O)cc2)c1	HepAD38 cells	CCK-8		6 days		CC50	6.29 ± 0.36 µM
COC[C@@H](CC(C)C)NC(=O)c1ccc(C)c(C)c1	primary human lymphocytes	item: structural aberrations		55 µg/mL, 20 h, without S9		cells with aberrations	0%
Cc1ccc(S(=O)(=O)Nn2c(N)c(-c3nc4ccccc4s3)c3[nH]nc(N)c3c2=O)cc1	FRhK-4			72 h		maximum non-toxic concentration	90 µg/mL

Excerpt of the above:
Structure (SMILES)	target or system	test	test system	conditions	how to read	quantity	result
Cc1ccc(-c2nc(N)nc(N)c2-c2nc3ccccc3s2)cc1	FRhK-4	cytotoxicity		72 h		maximum non-toxic concentration	110 µg/mL
Cc1cc(C)c(CNC(=O)c2cc(Cl)c3c(c2C)O[C@@](C)([C@H]2CC[C@H](N(C)C)CC2)O3)c(=O)[nH]1	Caco-2			1 µM		Papp A to B	0.395 ± 0.015 ×10⁻⁶ cm/s
CN(Cc1cnc2nc(N)nc(N)c2n1)c1ccc(C(=O)N2CCCCC2)cc1	THP-1-derived macrophages	MTT				CC50	> 100 µM
Nc1nc(NS(=O)(=O)c2ccccc2)ncc1-c1nc2ccccc2s1	FRhK-4	cytotoxicity		72 h		maximum non-toxic concentration	100 µg/mL
COc1cc2ncnc(Nc3ccc(Oc4ccccc4)cc3C)c2cc1OC.O=C(O)C(F)(F)F	SW-620 (KRAS G12V)	resazurin		concentration not given, 72 h, together with: trametinib 0 nM		viability fraction	0.996 and 1 and 0.99 and 0.928 and 0.858 and 0.954 and 0.939
COc1cc(/C=C2\CC/C(=C\c3ccc(O)c(OC)c3)C2=O)ccc1O	WRL68	MTT		25.0 µg/mL, 48 h, 10% FBS		viability	14.3% and 13.8%
